Results collected from several papers.
Numbered parts are unrelated; each lists some results of a single study. Changes are numbered by the printed parent chain.

Block 1 — technique: RNA Bind-n-Seq; form: RNA; matrix: in vitro; tested at: 365 nM; baseline: no-protein control; direction: higher = stronger binding
Target: RNA binding protein fox-1 homolog 2, RRM domain, GST-SBP tag (RBFOX2, Homo sapiens, UniProt O43251-10, residues 100-194)
Setting: natural RNA segment, single round, ends assumed
Shared flanks, not repeated: GGGAGUUCUACAGUCCGACGAUC … UGGAAUUCUCGGGUGCCAA
Construct (chain): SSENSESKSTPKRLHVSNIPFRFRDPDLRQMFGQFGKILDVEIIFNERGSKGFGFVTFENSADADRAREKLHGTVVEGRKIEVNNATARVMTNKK
Strand | RBNS enrichment (R)
GGGGCUGUACUGGGGACUGCUCGGAUGAUCUUUCUUAGUGCUACUUCUUUCAGCUGUCCCUGUAGCGACAGGUCUAAGAUCUGACUGCCUCCUCCUUUCUCUGGCCUCUU | 0.666
AUUGUAAAGAAGCGAUGCAACUUGUCAAAUAUUUAAUAAAGAAUUAUGGAAGCUGGAACAUUUUCUACAUCAAGUGUUAUGGGUUGUUUGAUUUAAAGCUUCUUUGUGAA | 1.58
UUCUAGCCAGAUCAGCCACUGAGCGGUAAGCAUCAGCGCUCAGCAGAGCCUUCCGAGCAGCAUUUAGAAAGCACCUUUGGGAAUGAUGGACUGCAAGGGAGUGGGCGGAU | 13.1
ACUCCGUUUCCAGUGAGCAGAUGUCUUGCUUGGAAAGUGGACCUGUGUCUGUGUCUGUCCUGAGAACUUACCAGCAGAAAUCCUCAUUUCUGUGCUACGGAUUUACCAAA | 0.33
GAAGUCAGAACAGAAGGAGGACGCUGGAGGGCCUUGCUGGCUACCGCUAUCUAAAGGGAACCCCCAUUUCUGACCCAUUAGUAGUCUUGAAUGUGGGGCUCUGAGAUAAA | 0.485
AGAGAGACUAUCUUGUGUUGUGCCUGUAUGAAUUUUUAAAAGUUGUUGACUGGAUUUUGCAAAAGGAUGUAUAAUAUUUCUGUCUGCUCAGAAUAUUAAUUUGUAAAUUC | 14
GAAUUCACCCGAAAUUCUCAUUUGCCAUCAGGCCGAGCUUUUAAAGAAAAAUUGUUCUCUAACCAGGAUUGUAACAAAAGUGUAAAUACUGUUUCAGAGUUGAGAGUUGG | 0.353
CUCAGCCUCCCAAAGUGCUGGGAUUACAGGCGUGAGCUAUCCCGCCCGGUCCCCUUUUCUUUAUUAUCGAAGAUAUUGUUUAAAAGAAAGAAAAAGUAGGUCCCAAUAAU | 0.233

Block 2 — target: NFE2L1, bZIP domain (human); technique: DHFR protein complementation; matrix: yeast; baseline: wild-type JUN-FOS pair; direction: higher = stronger binding
Setting: single substitutions, most at no-binding floor
Parent: JUN, bZIP domain (human); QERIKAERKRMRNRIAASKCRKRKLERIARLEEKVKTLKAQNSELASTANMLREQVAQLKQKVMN; partner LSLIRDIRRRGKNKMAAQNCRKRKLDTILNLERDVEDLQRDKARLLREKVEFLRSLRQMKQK
Variant | binding fitness [natural log]
E32F | -1.53
N42P | -1.49
L45E | -1.6
L31N | -1.42
I28F | -1.43
S43P | -1.46
Q41P | -1.45
R30M | -1.48
L52H | -1.54
K39I | -1.46
Q41T | -1.51
M51R | -1.47
R30V | -1.4
E54A | -1.36
I28K | -1.57
K36A | -1.45
K39C | -1.55
L52E | -1.37
E32D | -1.54
Q55T | -1.6
L45A | -1.57
S43Y | -1.44
L31K | -1.53
N42T | -1.51
R53S | -1.48

Block 3 — technique: DHFR PCA, deep sequencing; matrix: yeast; together with: (+)-ABA 0.11 µM; baseline: wild-type fitted maximum; direction: higher = stronger binding
Target: ABI1, truncated, D143A, DHFR fusion (Arabidopsis thaliana)
Setting: methotrexate growth selection, single substitutions
Parent: PYL1, truncated, DHFR fusion (Arabidopsis thaliana); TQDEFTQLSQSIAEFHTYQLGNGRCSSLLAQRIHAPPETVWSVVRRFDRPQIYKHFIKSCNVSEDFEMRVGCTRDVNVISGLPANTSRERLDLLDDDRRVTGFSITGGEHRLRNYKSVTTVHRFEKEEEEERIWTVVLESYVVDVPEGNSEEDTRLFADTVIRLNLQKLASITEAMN; partner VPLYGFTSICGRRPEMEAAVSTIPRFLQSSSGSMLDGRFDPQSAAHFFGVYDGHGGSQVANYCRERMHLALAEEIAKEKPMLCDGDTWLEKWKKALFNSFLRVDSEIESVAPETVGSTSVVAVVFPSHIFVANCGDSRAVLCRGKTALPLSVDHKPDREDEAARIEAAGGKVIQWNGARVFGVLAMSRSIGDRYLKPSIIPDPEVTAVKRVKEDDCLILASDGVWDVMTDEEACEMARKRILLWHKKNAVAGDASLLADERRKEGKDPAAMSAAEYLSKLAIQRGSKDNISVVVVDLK
Variant | relative binding score
C25F | 8.02%
D65Y | -4.55%
A170I | -9.81%
K168M | 8.7%
D92Q | 4.01%
G102T | -6.84%
G21T | 38.3%
D92V | -1.7%
G108D | 4.5%
E147Y | 15.5%
Q10D | 59.3%
R46A | 24.2%
R32Q | 20.7%
K116C | -3.65%
N22S | 42.8%

Block 4 — target: CCNF, cyclin fold, Cln2 fusion (human); technique: yeast growth competition, sequencing; matrix: yeast; setting: strong parent motif; baseline: not given; direction: higher = stronger binding
Parent: KIF20B docking peptide (human); KRAKRKLYTSEIS
Variant | normalised enrichment score
KRAKRKLYTAEIS [S10A] | 1.05
KRAKRALYTSEIS [K6A] | 1.09
KRAKRKLYTSEIA [S13A] | 1.65
ARAKRKLYTSEIS [K1A] | 2.74
KRAARKLYTSEIS [K4A] | 1.81
KRAKRKLATSEIS [Y8A] | 0.159

Block 5 — technique: protein-binding microarray; form: double-stranded DNA, one strand shown; matrix: in vitro; tested at: 2540 nM top; setting: 60-bp whole probe; together with: salmon DNA 0.4 mg/ml; baseline: random background probes; direction: higher = stronger binding; shared flanks, not repeated: GCCTAGCAC … GTCTTGATTCGCTTGACGCTGCTG
Target: Interferon regulatory factor 3, full length, phosphomimetic (IRF3, Homo sapiens, UniProt Q14653, residues 1-427, S386D/S396D/S398D/S402D/T404D/S405D)
Chain of UniProt Q14653 (whole entry, unmodified, looked up): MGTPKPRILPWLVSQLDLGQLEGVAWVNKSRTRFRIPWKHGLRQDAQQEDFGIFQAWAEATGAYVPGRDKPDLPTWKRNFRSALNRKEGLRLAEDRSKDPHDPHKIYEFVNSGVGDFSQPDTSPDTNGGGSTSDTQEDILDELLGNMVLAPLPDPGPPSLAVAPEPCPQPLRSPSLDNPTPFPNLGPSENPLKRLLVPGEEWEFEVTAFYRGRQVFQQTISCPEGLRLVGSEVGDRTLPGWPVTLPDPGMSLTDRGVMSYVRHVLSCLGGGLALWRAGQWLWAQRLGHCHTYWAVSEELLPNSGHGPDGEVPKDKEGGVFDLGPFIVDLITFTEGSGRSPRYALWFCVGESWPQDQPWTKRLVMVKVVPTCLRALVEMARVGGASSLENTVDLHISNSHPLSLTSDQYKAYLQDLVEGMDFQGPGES
Strand | fitted relative affinity [z-score]
GGCCCTATAGGTTTCTATATGTGCTAG | 0.985
TTAGATCTCAGTATCGAGTAGTGCTAG | 0.313
GGCTGTTTGGTCCTGAACCTGTGCTAG | -0.0211
GAAGATATCAGACTGGAGACGTGCTAG | 0.0244
GACGGCCTCCTTATCCTGACGTGCTAG | -0.0439
GACGATATCAGTCTCGATACGTGCTAG | 1.46
TTAGATTCCGGGTTTCGATTAGTGCTA | 2.37
TCAGCTTTAGTCATTCACACTGTGCTA | -0.196
TTAGGTCTCGGTTTCGTTTAGTGCTAG | 4.26
TTAGGATTCGACTTTCGGTTAGTGCTA | 1.89
TCACATATGCTTTTTAGACTGTGCTAG | 0.852
TAAGGTATCGGGTATCGGTTAGTGCTA | 1.86
GACGGAGTGCTTTTCCTGACGTGCTAG | 0.152
GTGCCCGCTGCTTCCGGTGCGTGCTAG | -0.339
TTTCTAATGTTTTTTAAAGTGTGCTAG | 1.88
TTAGAACAGAGACTGGATTAGTGCTAG | -0.388

Repeated from above (block 2):
Variant | binding fitness [natural log]
Q55T | -1.6
K39I | -1.46
N42P | -1.49
I28F | -1.43
Q41T | -1.51
M51R | -1.47
S43P | -1.46
R53S | -1.48
